Measured values pooled from the literature.
Lines come from different studies, so protocols differ. Numbers after ± are the reported error.
Organism: Acinetobacter baumannii

SMILES | assay | system | conditions | MIC
CC[C@H](C)CCCCC(=O)N[C@@H](CCN)C(=O)N[C@H](C(=O)N[C@@H](CCN)C(=O)N[C@H]1CCNC(=O)[C@H]([C@@H](C)O)NC(=O)[C@H](CCN)NC(=O)[C@H](CCN)NC(=O)[C@H](CC(C)C)NC(=O)[C@@H](CC(C)C)NC(=O)[C@H](CCN)NC1=O)[C@@H](C)O | – | AB1, multidrug-resistant | – | 2 µg/mL
CC[C@@H](C)[C@@H](NC(=O)[C@@H](C)NC(=O)[C@@H](CCCCN)NC(=O)[C@@H](CC(C)C)NC(=O)[C@@H](C)NC(=O)[C@H](NC(=O)[C@@H](Cc1c[nH]cn1)NC(=O)[C@@H](CC(C)C)NC(=O)[C@H](NC(=O)[C@H](NC(=O)[C@@H](CCCCN)NC(=O)[C@@H](CCCCN)NC(=O)[C@@H](C)NC(=O)[C@@H](CO)NC(=O)[C@@H](CCCCN)NC(=O)[C@@H](Cc1ccccc1)NC(=O)[C@H](NC(=O)[C@@H](CCCCN)NC(=O)[C@@H](CC(C)C)NC(=O)[C@@H](Cc1ccccc1)NC(=O)[C@@H](CO)NC(=O)[C@@H](CCCCN)NC(=O)[C@@H](Cc1c[nH]c2ccccc12)NC(=O)[C@@H](CCCCN)NC(C)=O)[C@H](C)O)[C@H](C)O)C(C)C)[C@H](C)O)C(=O)N[C@H](CO)C(=O)N[C@H](CO)C(N)=O | – | 821, Mueller-Hinton broth | 24 h, 37 °C | 1.5 µM
CC(C)C[C@H](NC(=O)[C@H](Cc1ccc(O)cc1)NC(=O)[C@@H]1CCCN1C(=O)[C@H](CCCNC(=N)N)NC(=O)[C@@H]1CCCN1C(=O)[C@H](CCCCN)NC(=O)[C@H](CC(=O)O)NC(=O)[C@@H]1CCCN1C(=O)[C@H](CCCNC(=N)N)NC(=O)C1(N)CCCCC1)C(=O)N1CCC[C@H]1C(=O)N[C@@H](CCCNC(=N)N)C(=O)N1CCC[C@H]1C(=O)N[C@@H](CCCNC(=N)N)C(=O)N1CCC[C@H]1C(=O)N1CCC[C@H]1C(=O)N[C@@H](CCCNC(=N)N)C(=O)N1CCC[C@H]1C(=O)N[C@H](C(=O)N[C@@H](CCCNC(=N)N)C(=O)N[C@@H](CSc1c(F)c(F)c(-c2c(F)c(F)c(SC[C@H](NC(=O)[C@H](CCCNC(=N)N)NC(=O)[C@@H](NC(=O)[C@@H]3CCCN3C(=O)[C@H](CCCNC(=N)N)NC(=O)[C@@H]3CCCN3C(=O)[C@@H]3CCCN3C(=O)[C@H](CCCNC(=N)N)NC(=O)[C@@H]3CCCN3C(=O)[C@H](CCCNC(=N)N)NC(=O)[C@@H]3CCCN3C(=O)[C@H](CC(C)C)NC(=O)[C@H](Cc3ccc(O)cc3)NC(=O)[C@@H]3CCCN3C(=O)[C@H](CCCNC(=N)N)NC(=O)[C@@H]3CCCN3C(=O)[C@H](CCCCN)NC(=O)[C@H](CC(=O)O)NC(=O)[C@@H]3CCCN3C(=O)[C@H](CCCNC(=N)N)NC(=O)C3(N)CCCCC3)C(C)C)C(=O)NN)c(F)c2F)c(F)c1F)C(=O)NN)C(C)C | bacterial growth | ATCC 19606, 100% Mueller-Hinton broth | 90 min, 37 °C, strain ATCC 19606 | 4.9 ± 1.3 µg/mL
CC[C@H](C)[C@H](NC(=O)[C@H](C)NC(=O)[C@@H](NC(=O)[C@H](CC(=O)O)NC(=O)[C@H](CCCCN)NC(=O)[C@H](CO)NC(=O)[C@@H](NC(=O)[C@H](CC(N)=O)NC(=O)[C@H](C)NC(=O)[C@@H](NC(=O)[C@H](CCC(=O)O)NC(=O)[C@H](CCCCN)NC(=O)[C@@H](NC(=O)[C@@H](NC(=O)[C@H](Cc1c[nH]cn1)NC(=O)[C@H](CCCCN)NC(=O)[C@@H](NC(=O)[C@H](CCCCN)NC(=O)[C@H](CCCCN)NC(=O)[C@@H](NC(=O)[C@H](CC(C)C)NC(=O)[C@H](CCCCN)NC(=O)[C@H](CC(N)=O)NC(=O)[C@H](Cc1ccccc1)NC(=O)[C@H](CCCNC(=N)N)NC(=O)[C@H](CCCCN)NC(=O)[C@H](CCCNC(=N)N)NC(=O)[C@H](Cc1ccccc1)NC(=O)CN)C(C)C)C(C)C)[C@@H](C)O)[C@@H](C)CC)[C@@H](C)O)C(C)C)C(C)C)C(=O)N[C@H](C(=O)N[C@@H](C)C(=O)NCC(=O)N[C@@H](CO)C(=O)NCC(=O)N[C@H](C(=O)N[C@@H](C)C(=O)N[C@H](C(=O)NCC(=O)N[C@@H](C)C(=O)N[C@@H](C)C(=O)N[C@@H](CCSC)C(N)=O)C(C)C)C(C)C)C(C)C | broth microdilution | ATCC 19606, CAMHB | – | 4 µg/mL
CCCCCCCCCCCCCC(=O)N[C@H](CCN)C(=O)N[C@H](C(=O)N[C@H]1CCNC(=O)[C@H](CC(=O)O)NC(=O)[C@H](C(C)C)NC(=O)[C@@H](Cc2ccc(O)cc2)NC(=O)[C@H](CCN)NC(=O)[C@H](CC(C)C)NC(=O)[C@@H](Cc2ccccc2)NC(=O)[C@H](CCN)NC(=O)[C@H](CC(C)C)NC1=O)[C@@H](C)O | broth microdilution | BNCC 194496 | – | 4 µg/mL
CC(C)C[C@@H]1NC(=O)[C@@H](Cc2ccccc2)NC(=O)[C@H](CCN)NC(=O)[C@@H](NC(=O)[C@H](CN)NC(=O)[C@@H](NC(=O)CC(CN)C2CCCCC2)[C@@H](C)O)CCNC(=O)[C@H]([C@@H](C)O)NC(=O)[C@H](CCN)NC(=O)[C@H](CCN)NC1=O (stereo partly shown) | broth microdilution | ATCC 19003, cation-adjusted Mueller-Hinton broth | – | 0.25 µg/mL
CC[C@H](C)[C@H](NC(=O)[C@H](CCCN)NC(=O)[C@H](CC(N)=O)NC(=O)[C@H](Cc1c[nH]c2ccccc12)NC(=O)[C@H](Cc1ccccc1)NC(=O)[C@H](CCCN)NC(=O)[C@H](CCCNC(=N)N)NC(=O)[C@H](CC(C)C)NC(=O)[C@H](Cc1c[nH]c2ccccc12)NC(=O)[C@H](CCCN)NC(=O)[C@H](CCCNC(=N)N)NC(=O)[C@H](CC(C)C)NC(=O)CNC(C)=O)C(=O)N[C@@H](CCCN)C(=O)N[C@@H](CCCNC(=N)N)C(N)=O | bacterial growth, broth microdilution | multidrug-resistant | – | 3.12 µM
CC(C)[C@@H]1NC(=O)[C@@H]2CCCN2C(=O)[C@@H](C)NC(=O)[C@H](CO)NC(=O)[C@H](C)NC(=O)[C@H](C(C)(C)C)NC(=O)[C@H](CCO)NC(=O)[C@H](Cc2c[nH]c3ccccc23)NC(=O)[C@H](CCO)NC(=O)[C@@H](CCN)NC(=O)[C@H](CCC(N)=O)NC(=O)[C@H](CCN)NC(=O)[C@H](Cc2ccc(O)cc2)NC(=O)[C@H]([C@@H](C)O)NC1=O | broth microdilution | ATCC 17978, CAMHB with polysorbate-80 | 16 h | > 64 µg/mL
C[C@H](N)[C@@H](CCCCCCCCCCCCCCC(=O)CCCCCCC[C@@H](O)[C@@H](C)N)O[C@@H]1O[C@H](CO)[C@H](O)[C@H](O)[C@H]1O | microbial growth, resazurin | ATCC19606 | 6 h | 12.6 µM
CC[C@H](C)[C@H](NC(=O)[C@@H](CCCNC(=N)N)NC(=O)[C@H](CCCNC(=N)N)NC(=O)[C@H](CCCNC(=N)N)NC(=O)[C@H](Cc1c[nH]c2ccccc12)NC(=O)[C@H](CCCNC(=N)N)NC(=O)[C@@H]1CCCN1C(=O)[C@H](CCCNC(=N)N)NC(=O)[C@@H]1CCCN1C(=O)[C@H](CC(C)C)NC(=O)[C@H](Cc1ccc(O)cc1)NC(=O)[C@@H]1CCCN1C(=O)[C@@H]1CCCN1C(=O)[C@H](CCCCN)NC(=O)[C@H](CC(=O)O)NC(=O)[C@@H](N)C(C)C)C(=O)N[C@@H](Cc1ccc(O)cc1)C(=O)N[C@@H](CC(N)=O)C(=O)N[C@H](CCCNC(=N)N)C(N)=O | broth microdilution | DSM 30008 | 18 h | 16 µg/mL

For quick reference, copied from above:
SMILES | assay | system | conditions | MIC
CC[C@H](C)[C@H](NC(=O)[C@H](C)NC(=O)[C@@H](NC(=O)[C@H](CC(=O)O)NC(=O)[C@H](CCCCN)NC(=O)[C@H](CO)NC(=O)[C@@H](NC(=O)[C@H](CC(N)=O)NC(=O)[C@H](C)NC(=O)[C@@H](NC(=O)[C@H](CCC(=O)O)NC(=O)[C@H](CCCCN)NC(=O)[C@@H](NC(=O)[C@@H](NC(=O)[C@H](Cc1c[nH]cn1)NC(=O)[C@H](CCCCN)NC(=O)[C@@H](NC(=O)[C@H](CCCCN)NC(=O)[C@H](CCCCN)NC(=O)[C@@H](NC(=O)[C@H](CC(C)C)NC(=O)[C@H](CCCCN)NC(=O)[C@H](CC(N)=O)NC(=O)[C@H](Cc1ccccc1)NC(=O)[C@H](CCCNC(=N)N)NC(=O)[C@H](CCCCN)NC(=O)[C@H](CCCNC(=N)N)NC(=O)[C@H](Cc1ccccc1)NC(=O)CN)C(C)C)C(C)C)[C@@H](C)O)[C@@H](C)CC)[C@@H](C)O)C(C)C)C(C)C)C(=O)N[C@H](C(=O)N[C@@H](C)C(=O)NCC(=O)N[C@@H](CO)C(=O)NCC(=O)N[C@H](C(=O)N[C@@H](C)C(=O)N[C@H](C(=O)NCC(=O)N[C@@H](C)C(=O)N[C@@H](C)C(=O)N[C@@H](CCSC)C(N)=O)C(C)C)C(C)C)C(C)C | broth microdilution | ATCC 19606, CAMHB | – | 4 µg/mL
